Measurements collected from several papers.
Parts stem from different laboratories: compare values within a part only. Positions count from the first letter of the parent shown.

Sample 1
Target: Interferon regulatory factor 3, full length, phosphomimetic (IRF3, Homo sapiens, UniProt Q14653, residues 1-427, S386D/S396D/S398D/S402D/T404D/S405D)
Method: protein-binding microarray
Form: double-stranded DNA, one strand shown
Medium: in vitro
Tested at: 2540 nM top
Setting: 60-bp whole probe
Added: salmon DNA 0.4 mg/ml
Baseline: random background probes
Direction: higher = stronger binding
Measurement: fitted relative affinity
All sequences stand within: GCCTAGCAC … GTCTTGATTCGCTTGACGCTGCTG
Target sequence (chain): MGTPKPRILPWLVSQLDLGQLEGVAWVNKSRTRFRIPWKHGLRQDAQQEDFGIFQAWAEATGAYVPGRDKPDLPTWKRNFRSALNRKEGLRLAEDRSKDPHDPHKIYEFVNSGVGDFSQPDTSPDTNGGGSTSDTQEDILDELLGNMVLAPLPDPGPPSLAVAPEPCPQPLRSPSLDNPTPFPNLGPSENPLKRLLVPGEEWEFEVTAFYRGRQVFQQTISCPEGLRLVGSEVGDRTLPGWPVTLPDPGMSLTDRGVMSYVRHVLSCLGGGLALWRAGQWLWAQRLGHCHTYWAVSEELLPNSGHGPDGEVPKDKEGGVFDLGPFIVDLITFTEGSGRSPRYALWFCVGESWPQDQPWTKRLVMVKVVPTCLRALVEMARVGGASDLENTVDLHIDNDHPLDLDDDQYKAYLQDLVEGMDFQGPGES
Sequence = GACGATATCAGTTTCTAGACGTGCTAG; result = 2.61 z-score
Sequence = TCACATGTGCCTTTATAACTGTGCTAG; result = 0.468 z-score
Sequence = GACGGTCTCCTTTTCCTGGCGTGCTAG; result = 4.83 z-score
Sequence = GATGGTTTCGGTCTCGGGACGTGCTAG; result = 8.46 z-score
Sequence = GACGGTATCCACTATCGGGACGTGCTA; result = 1.5 z-score
Sequence = GACGATTCCAGTTTCGAGGCGTGCTAG; result = 2.82 z-score
Sequence = TTAGGTTTCATTCTCCTTTAGTGCTAG; result = 6.04 z-score
Sequence = GACGATTTCGACTTTCGGGACGTGCTA; result = 1.98 z-score

Sample 2
Target: CEBPD, bZIP domain (human)
Method: DHFR protein complementation
Medium: yeast
Setting: single substitutions, most at no-binding floor
Baseline: wild-type JUN-FOS pair
Direction: higher = stronger binding
Measurement: binding fitness
Parent: JUN, bZIP domain (human); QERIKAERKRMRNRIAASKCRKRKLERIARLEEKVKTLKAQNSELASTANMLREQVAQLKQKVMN; partner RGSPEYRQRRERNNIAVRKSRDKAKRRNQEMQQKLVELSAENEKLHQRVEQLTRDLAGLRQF
Substitution = E54C; result = -1.34 natural log
Substitution = E54P; result = -1.54 natural log
Substitution = E32F; result = -1.49 natural log
Substitution = M51I; result = -1.37 natural log
Substitution = Q41W; result = -1.47 natural log
Substitution = K39C; result = -1.15 natural log
Substitution = K34L; result = -1.29 natural log
Substitution = L38R; result = -1.46 natural log

Sample 3
Target: TAR DNA-binding protein 43, full length, His tag (TARDBP, Homo sapiens, UniProt Q13148, residues 1-414)
Method: RNA Bind-n-Seq
Form: RNA
Medium: in vitro
Tested at: 20 nM
Setting: 6-mer, flanks averaged, single round
Added: 150 mM KCl
Baseline: input library
Direction: higher = stronger binding
Measurement: 6-mer enrichment (R)
Sequence = UUGUAG; result = 0.834
Sequence = AGUAAG; result = 0.924
Sequence = UGUAUA; result = 0.71
Sequence = AAGUCC; result = 0.602
Sequence = CAUAUC; result = 0.548
Sequence = UCGUCC; result = 0.641
Sequence = UUCCUC; result = 0.538
Sequence = CGCCAU; result = 0.656

Mixed results
Molecule = SLMASSPTSI; target = HLA class I histocompatibility antigen, A alpha chain, allele A*25:01 (Homo sapiens, UniProt P04439); assay = peptide-MHC binding; test system = peptide; conditions = concentration not given; measurement = binding; result = inactive

A few entries again (sample 3):
Sequence = AAGUCC; result = 0.602
Sequence = UUGUAG; result = 0.834
Sequence = AGUAAG; result = 0.924
